Measurements from different studies.
Each line is one published result; not all experiments were run side by side. Several values in a cell are separate wells, animals, samples, runs or records. Numbers after ± are the reported error.

`CC(C)Nc1ccnc(Nc2cccc(-c3cccnc3)c2)n1` has a blood chemistry of 0.3 mg/dL (refers to: total bilirubin; mouse, blood; intraperitoneal, 5 mg/kg).
`COc1ncccc1-c1cnn2ccc(N3CCN(C(=O)OC(C)C)CC3)nc12` has a drug concentration of 310 nM (rat, thermal hyperalgesia model, brain; oral, 1 mg/kg, 180 min).
The lachrymation score of `CC(C)[C@@H]1NC(=O)CNC(=O)[C@H](CC(N)=O)NC(=O)[C@H](CCCNC(=N)N)NC(=O)[C@H](Cc2ccc(O)cc2)NC(=O)[C@H](C(C)C)NC(=O)[C@@H](NC(=O)[C@@H](NC(=O)[C@H](CC(N)=O)NC(=O)[C@H](Cc2c[nH]c3ccccc23)NC(=O)[C@H](C)NC(=O)[C@H](Cc2ccccc2)NC(=O)CN)C(C)C)CSSC[C@@H](C(=O)N[C@@H](Cc2cnc[nH]2)C(=O)N[C@@H](CCCNC(=N)N)C(=O)N[C@@H](CCCNC(=N)N)C(=O)N[C@@H](C)C(=O)N[C@@H](CC(N)=O)C(N)=O)NC(=O)[C@H](C(C)C)NC(=O)[C@H](CCCNC(=N)N)NC1=O` is reported as 0 (ICR mouse; ip, 10 mg/kg; direction not given).
For `[O-][S+]1CCc2nc(N3CCC(c4ncc(Cl)cn4)CC3)nc(NC3(CO)CCC3)c21` (centres unmarked), “adverse event incidence” read 33.3% (refers to: gastrointestinal disorders; healthy male humans; 36 mg single dose).
For `O=S(=O)(Nc1ccccc1)c1ccc(NC(=S)Nc2ccccc2)cc1`, “blood cell fraction” read 0.13% (refers to: BA%; female mouse, blood; oral, 20 mg/kg daily, 14 days).
`NCCCC[C@@H]1NC(=O)[C@@H](Cc2c[nH]c3ccccc23)NC(=O)[C@H](c2ccccc2)NC(=O)[C@@H]2C[C@@H](OC(=O)NCCN)CN2C(=O)[C@H](Cc2ccccc2)NC(=O)[C@H](Cc2ccc(OCc3ccccc3)cc2)NC1=O`: “placebo-corrected QTcF change” 10.5 ms (healthy volunteers, female; 1950 µg twice daily, 1.5 h, post hoc).
`CN[C@@H](C)C(=O)N[C@H]1CN(S(=O)(=O)c2cccc(S(=O)(=O)N3CC[C@H]4CC[C@@H](C(=O)NC(c5ccccc5)c5ccccc5)N4C(=O)[C@@H](NC(=O)[C@H](C)NC)C3)c2)CC[C@H]2CC[C@@H](C(=O)NC(c3ccccc3)c3ccccc3)N2C1=O` — result for “treatment-related ALT elevation incidence”: 0% (patients with advanced solid tumours; 12 mg, phase I monotherapy).
For `CC(C)[C@@H]1CC[C@@H](C)C[C@@H]1O`, the cholesterol was 67.5 ± 3.95 mg/dL (acute oral toxicity OECD; Swiss albino mice, serum; oral, 300 mg/kg).
`O=C1Nc2cc3[nH]nc(-c4ccncc4)c3cc2CN1Cc1ccccc1`: “patients with TEAE” 15% (refers to: Cough; patients with advanced solid tumours; intravenous, dose not given, all schedules).
`CO[C@H]1C[C@@H]2CC[C@@H](C)[C@@](O)(O2)C(=O)C(=O)N2CCCC[C@H]2C(=O)O[C@H]([C@H](C)C[C@@H]2CC[C@@H](OC(=O)NCCOCCOCCOCCOCCOCCOCCOCCOCCC(=O)N3CCc4cc(Cn5nc(-c6ccc7oc(N)nc7c6)c6c(N)ncnc65)ccc4C3)[C@H](OC)C2)C[C@@H](O)[C@H](C)/C=C(\C)[C@@H](O)[C@@H](OC)C(=O)[C@H](C)C[C@H](C)/C=C/C=C/C=C/1C` gave a fatigue incidence of 68.8% (patients with advanced solid tumours; intravenous, 8 mg weekly, any grade).
Under “remaining intact peptide”, `CC[C@H](C)[C@H](NC(=O)[C@H](CCCCN)NC(=O)[C@H](CCC(=O)O)NC(=O)[C@H](CCCCN)NC(=O)[C@H](CO)NC(=O)[C@H](CCCCN)NC(=O)[C@H](CCCNC(=N)N)NC(=O)[C@H](Cc1ccccc1)NC(=O)[C@H](Cc1ccccc1)NC(=O)[C@H](CC(=O)O)NC(=O)CNC(=O)[C@H](CC(C)C)NC(=O)[C@@H](N)CC(C)C)C(=O)NCC(=O)N[C@@H](CCCCN)C(=O)N[C@@H](CCC(=O)O)C(=O)N[C@@H](Cc1ccccc1)C(=O)N[C@@H](CCCCN)C(=O)N[C@@H](CCCNC(=N)N)C(=O)N[C@H](C(=O)N[C@H](C(=O)N[C@@H](CCC(N)=O)C(=O)N[C@@H](CCCNC(=N)N)C(=O)N[C@H](C(=O)N[C@@H](CCCCN)C(=O)N[C@@H](CC(=O)O)C(=O)N[C@@H](Cc1ccccc1)C(=O)N[C@@H](CC(C)C)C(=O)N[C@@H](CCCNC(=N)N)C(=O)N[C@@H](CC(N)=O)C(=O)N[C@@H](CC(C)C)C(=O)N[C@H](C(=O)N1CCC[C@H]1C(=O)N[C@@H](CCCNC(=N)N)C(=O)N[C@H](C(=O)N[C@@H](CCC(=O)O)C(=O)N[C@@H](CO)C(=O)O)[C@@H](C)O)C(C)C)[C@@H](C)CC)C(C)C)[C@@H](C)CC` is recorded as 0% (LC-MS; 50% pooled human serum; 40 µM, 720 min, pH 7.5, 37 °C; reference: 0 h).
`CC[C@H](C)[C@H](NC(=O)[C@H](Cc1ccccc1)NC(=O)[C@H](CCC(=O)O)NC(=O)[C@H](CCCNC(=N)N)NC(=O)[C@H](C)NC(=O)[C@H](C)NC(=O)[C@H](CCC(N)=O)NC(=O)[C@H](CCC(=O)O)NC(=O)[C@H](CCC(=O)O)NC(=O)[C@H](CC(C)C)NC(=O)[C@H](Cc1ccc(O)cc1)NC(=O)[C@H](CO)NC(=O)[C@H](CO)NC(=O)[C@@H](NC(=O)[C@H](CC(=O)O)NC(=O)[C@H](CO)NC(=O)[C@@H](NC(=O)[C@H](Cc1ccccc1)NC(=O)[C@@H](NC(=O)CNC(=O)[C@H](CCC(=O)O)NC(=O)[C@H](C)NC(=O)CCc1cnc[nH]1)[C@@H](C)O)[C@@H](C)O)C(C)C)C(=O)N[C@@H](C)C(=O)N[C@@H](Cc1c[nH]c2ccccc12)C(=O)N[C@@H](CC(C)C)C(=O)N[C@H](C(=O)N[C@@H](CCCNC(=N)N)C(=O)NCC(=O)N[C@@H](CCCNC(=N)N)C(=O)N[C@@H](CCCCNC(=O)COCCOCCNC(=O)COCCOCCNC(=O)CC[C@H](NC(=O)CCCCCCCCCCCCCCCCC(=O)O)C(=O)O)C(=O)NCC(=O)NCC(=O)N[C@@H](CO)C(=O)N[C@@H](CCCCNC(=O)[C@H](CCCCNc1c(NCCCCCN(O)C(=O)CCC(=O)NCCCCCN(O)C(=O)CCC(=O)NCCCCCN(O)C(C)=O)c(=O)c1=O)Nc1c(NCCCCCN(O)C(=O)CCC(=O)NCCCCCN(O)C(=O)CCC(=O)NCCCCCN(O)C(C)=O)c(=O)c1=O)C(=O)O)C(C)C` [zirconium-89 labelled] has a tissue uptake of 0.21 %ID/g and 0.231 %ID/g and 0.186 %ID/g and 0.211 %ID/g and 0.256 %ID/g (ex vivo gamma counting; Sprague-Dawley rat, male, pancreas; intravenous, 1 nmol, 24 h).
`Cc1cccc(Cn2nc(C3CC3)c3c(NC(=O)c4cnc5cc(OCCN6CCN(C)CC6)ccn45)cccc32)n1`: “all-cause adverse events” 18.5% (CTCAE v4.03, refers to: blood CPK increased; pancreatic ductal adenocarcinoma patients; oral, dose not given, together with: pembrolizumab IV every 3 weeks).
`O=C(c1ccc(F)c(F)c1Nc1ccc(I)cc1F)N1CC(O)([C@@H]2CCCCN2)C1`: “treatment-related AE causing dose modification” 31% (human patients; oral, dose not given, dose escalation, suspension).

Some of these lines once more:
`COc1ncccc1-c1cnn2ccc(N3CCN(C(=O)OC(C)C)CC3)nc12` has a drug concentration of 310 nM (rat, thermal hyperalgesia model, brain; oral, 1 mg/kg, 180 min).
